# Assay results pooled from the literature.
# Lines come from different studies, so protocols differ. Numbers after ± are the reported error.
Compound,tested on,test,system,conditions,how to read,measurement,value
CC1=CC[C@H]2[C@@H]([C@@H]1CC[C@H]1[C@]3(C)CC[C@H](O)C(C)(C)O[C@H]3CC[C@]1(C)O)C(C)(C)CC[C@]2(C)O,KB-C2 (P-gp overexpressing),drug efflux,,"10 µM, 120 min",,intracellular [3H]-paclitaxel remaining,56.4%
C[C@H](Nc1ccc2c(c1)OCCn1cc(N3C(=O)OC[C@H]3C(F)F)nc1-2)C(N)=O,NCI-H596,"cell growth, CellTiter-Glo",,120 h,,Hill coefficient GR curve,0.538
O=C1[C@H](Cc2ccc(O)cc2)N2C(=O)CCN(C(=O)NCc3ccccc3)[C@H]2CN1Cc1cccc2ccccc12,HD-MB03,cell growth,,single agent,,IC50,0.655 µM
CC1=C(Cn2cc(COC3COC3)nn2)C(=O)c2ccccc2C1=O,Schistosoma mansoni,,adult worms,"25 µM, 48 h",,killing,51%
CCOC(=O)C1CCN(C(=O)c2ccc(N(CC)Cc3cnc4nc(N)nc(N)c4n3)cc2)CC1,786-O,"high-content imaging, measured: MitoTracker Red uptake",,10 µM,,mitochondrial toxicity,14.5 ± 9.52%
CCn1cc(-c2cc(Cn3ccnc3)cc3c2CCN([C@H](c2cc(OC)ccn2)C2CC2)C3=O)c(C(F)(F)F)n1,AU565,"cell growth, inhibitor",,120 h,,EC50,6.67 µM
Cc1cc(Nc2ncc(Cl)c(Nc3ccccc3S(=O)(=O)C(C)C)n2)c(OC(C)C)cc1C1CCNCC1,CLB-BAR,"phosphoproteomics LC-MS/MS, measured: PDCD11 phosphorylation",,"200 nM, 60 min",baseline: untreated,log2 fold change,-1.82
CCNc1nc(Nc2cc(F)c(C(=O)N3CCOCC3)cc2OC)ncc1C(F)(F)F,HD-MB03,,,168 h,,IC50,inactive
CCn1cc(-c2cc(Cn3ccoc3=N)cc3c2CCN([C@@H](C)c2cc(OC)ccn2)C3=O)c(C(F)(F)F)n1,NCI-H2030,"cell growth, inhibitor",,120 h,,EC50,> 30 µM
C[N+]1(C)CCC(OC(=O)C(O)(c2ccccc2)C2CCCC2)C1 (centres unmarked),primary rat hippocampal/cortical neuron-glia cultures,,,"1 µM, together with: 1 µM α-synuclein oligomers",,reversal of trafficking deficit,8.04%
O=c1[nH]nc(OCCCc2ccc(Cl)cc2)c(NCc2cccnc2)c1Br,HEK293T,"RNA-seq, measured: CEBPB mRNA",,"10 µM, 6 h",baseline: vehicle,log2 fold change,1.35
CCc1cc2c(cc1N1CCC(N3CCOCC3)CC1)C(C)(C)c1[nH]c3cc(C#N)ccc3c1C2=O,HD-MB03,cell growth,,"168 h, single agent",,IC50,0.605 µM
CCCNCC(O)COc1ccccc1C(=O)CCc1ccccc1 (centres unmarked),Nedd8-cullin1 interaction,"neddylation, AlphaScreen",,100 µM,,inhibition,-84.8%
Cc1ccc2c(c1)C(=O)[C@]1(O)CCN(c3ccc4nc(C)ccc4c3)C1=N2.Cl,human low-passage GBM lines,"Western blot, measured: γH2AX",,concentration not given,,protein level,increased
CCOC(=O)CSc1nc(-c2ccc(Cl)cc2)c2c(NC(=O)c3ccccc3)nnc-2[nH]1,A549/ATCC,NCI60 SRB,,10 µM,,growth percent,106%
COc1cnc2cccc(N3CCc4c(cc(Cn5ccnc5C)cc4-c4cn(C)nc4C(F)(F)F)C3=O)c2c1,BXPC-3,"cell growth, inhibitor",,120 h,,EC50,19.8 µM
O=C1c2ccccc2C(=O)C1c1ccccc1,Nedd8-cullin1 interaction,"neddylation, AlphaScreen",,100 µM,,inhibition,33.7%
Cn1cc(-c2ccc(-c3cncc(Cl)c3N3CCC4(CCNC4=O)CC3)cc2)cn1,COLO 205,"microarray, measured: E2F1",,"concentration not given, 2 h",baseline: untreated cells,fold change in expression,-2.06
O=C1CCC(N2C(=O)C=C(Nc3cccc(C4(NCCc5ccc(Cl)c(C(F)(F)F)c5)CCC4)c3)C2=O)C(=O)N1 (centres unmarked),patient-derived PDAC organoids,"qPCR, measured: ZBTB11 downstream transcripts",,1 µM,,mRNA level,decreased
CC1=C(Cn2cc(CN3CCOCC3)nn2)C(=O)c2ccccc2C1=O,Schistosoma mansoni,,adult worms,"25 µM, 24 h",,killing,45.5%
CSc1cc(Oc2ccnc3[nH]c(=O)cnc23)ccc1NC(=O)Nc1cc(C(C)(C)C)nn1-c1ccccc1,"patient-derived cell lines, mean of three",RPPA,,"1 µM, 4 h",baseline: DMSO,phospho-Met/total Met ratio,0.75
O=C(/C=C/C=C/C=C/C1CCCCC1)NC1=C[C@@](O)(/C=C/C=C/C=C/C(=O)NC2=C(O)CCC2=O)[C@@H]2O[C@@H]2C1=O,Hs 294T,"cell growth, CellTiter-Glo",,78 h,,GI50,16.9 µM
CC(C)NCC(O)c1ccc(O)c(O)c1 (centres unmarked),,,"ventricular cardiomyocytes, C57BL/6 mouse","dose not given, 0.596 s",,sarcomere length,1.66 µm
O=C(NOC[C@H](O)CO)c1ccc(F)c(F)c1Nc1ccc(I)cc1F,A-375,,,"0.1562 µM, 72 h",,viability,14%
c1ccc2[nH]ccc2c1,HCT-8,"RNA-seq, measured: LDLR",,concentration not given,,"mRNA level, LS mean",56.4 counts per million
O=C(C=Cc1cc(C(=O)c2ccc(OC3CCCC3)cc2O)ccc1OCc1ccc2c(O)noc2c1)NCCOCCOCCOCCOCCOCCOCCOCCNc1cccc2c1C(=O)N(C1CCC(=O)NC1=O)C2=O (centres unmarked),UMSCC1 cells,"RT-qPCR, measured: FOSL1 target genes SNAI2, BMI1",,"concentration not given, 16 h",,mRNA level,inhibited

# Excerpt of the above:
Compound,tested on,test,system,conditions,how to read,measurement,value
Cc1ccc2c(c1)C(=O)[C@]1(O)CCN(c3ccc4nc(C)ccc4c3)C1=N2.Cl,human low-passage GBM lines,"Western blot, measured: γH2AX",,concentration not given,,protein level,increased
CCOC(=O)CSc1nc(-c2ccc(Cl)cc2)c2c(NC(=O)c3ccccc3)nnc-2[nH]1,A549/ATCC,NCI60 SRB,,10 µM,,growth percent,106%
COc1cnc2cccc(N3CCc4c(cc(Cn5ccnc5C)cc4-c4cn(C)nc4C(F)(F)F)C3=O)c2c1,BXPC-3,"cell growth, inhibitor",,120 h,,EC50,19.8 µM
O=C1c2ccccc2C(=O)C1c1ccccc1,Nedd8-cullin1 interaction,"neddylation, AlphaScreen",,100 µM,,inhibition,33.7%
